{"data": "Experimental data collected from several papers", "note": "Every numbered part comes from another study and shows a few of its results, in no order. Values joined by “and” are separate records of one study, mostly repeats; a detail may differ. Substitutions count along the parent as printed.", "chain of UniProt P29317 (whole entry, looked up)": "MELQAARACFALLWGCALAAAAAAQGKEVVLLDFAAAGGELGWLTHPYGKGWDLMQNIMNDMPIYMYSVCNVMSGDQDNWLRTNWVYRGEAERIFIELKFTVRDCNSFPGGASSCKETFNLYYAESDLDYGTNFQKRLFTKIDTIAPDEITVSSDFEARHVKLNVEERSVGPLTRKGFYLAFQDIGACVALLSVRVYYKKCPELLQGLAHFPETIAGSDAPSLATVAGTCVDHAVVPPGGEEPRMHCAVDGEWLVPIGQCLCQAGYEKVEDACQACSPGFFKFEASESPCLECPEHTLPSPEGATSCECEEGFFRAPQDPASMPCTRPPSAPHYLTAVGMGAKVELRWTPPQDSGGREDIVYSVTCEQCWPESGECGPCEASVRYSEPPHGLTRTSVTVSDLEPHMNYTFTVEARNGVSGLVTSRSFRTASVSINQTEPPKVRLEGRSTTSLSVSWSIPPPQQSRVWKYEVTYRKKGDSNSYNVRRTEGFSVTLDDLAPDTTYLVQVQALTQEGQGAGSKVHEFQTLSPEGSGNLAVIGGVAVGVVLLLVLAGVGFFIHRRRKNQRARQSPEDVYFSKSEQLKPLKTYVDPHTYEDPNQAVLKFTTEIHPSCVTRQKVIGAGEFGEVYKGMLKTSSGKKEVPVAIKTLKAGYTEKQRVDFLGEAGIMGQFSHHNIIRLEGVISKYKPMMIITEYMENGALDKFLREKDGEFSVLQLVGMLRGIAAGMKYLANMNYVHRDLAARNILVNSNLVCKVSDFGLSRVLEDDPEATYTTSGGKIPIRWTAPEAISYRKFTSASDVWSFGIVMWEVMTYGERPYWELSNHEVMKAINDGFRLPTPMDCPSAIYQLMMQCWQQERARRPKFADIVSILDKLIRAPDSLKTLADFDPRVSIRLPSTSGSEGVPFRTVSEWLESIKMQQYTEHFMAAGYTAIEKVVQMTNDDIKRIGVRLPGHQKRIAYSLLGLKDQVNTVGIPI"}
{"data": "Study 1", "target": "ABI1, truncated, D143A, DHFR fusion (Arabidopsis thaliana)", "method": "DHFR PCA, deep sequencing", "medium": "yeast", "notes": "methotrexate growth selection, single substitutions", "together with": "(+)-ABA 200 µM", "reference": "wild-type fitted maximum", "direction": "higher = stronger binding", "parent": "PYL1, truncated, DHFR fusion (Arabidopsis thaliana); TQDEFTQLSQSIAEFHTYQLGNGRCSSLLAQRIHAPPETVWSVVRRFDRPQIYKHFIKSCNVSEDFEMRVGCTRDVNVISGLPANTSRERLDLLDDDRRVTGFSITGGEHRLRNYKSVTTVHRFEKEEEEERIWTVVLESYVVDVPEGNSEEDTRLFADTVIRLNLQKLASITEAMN; partner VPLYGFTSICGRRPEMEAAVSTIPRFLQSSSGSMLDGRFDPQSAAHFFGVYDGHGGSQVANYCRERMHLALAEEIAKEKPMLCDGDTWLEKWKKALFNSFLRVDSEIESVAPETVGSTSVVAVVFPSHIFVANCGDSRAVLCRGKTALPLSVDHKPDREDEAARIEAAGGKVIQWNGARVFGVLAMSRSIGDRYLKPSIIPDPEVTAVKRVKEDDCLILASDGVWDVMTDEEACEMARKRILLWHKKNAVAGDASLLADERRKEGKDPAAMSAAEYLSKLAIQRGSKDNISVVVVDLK"}
{"Variant": "L20F", "relative binding score": "92.8%"}
{"Variant": "E129L", "relative binding score": "100%"}
{"Variant": "P36F", "relative binding score": "86%"}
{"Variant": "P83N", "relative binding score": "33.9%"}
{"Variant": "S63P", "relative binding score": "102%"}
{"Variant": "L156D", "relative binding score": "87.4%"}
{"Variant": "H55R", "relative binding score": "102%"}
{"Variant": "D159G", "relative binding score": "78.4%"}
{"data": "Study 2", "target": "Fragile X messenger ribonucleoprotein 1, C-terminal low-complexity region (Fmr1, Mus musculus, UniProt P35922)", "method": "RNA Bind-n-Seq", "form": "RNA", "medium": "in vitro", "concentration": "200 nM", "notes": "whole 134-nt RNA, ends assumed", "together with": "150 mM LiCl", "reference": "input library", "direction": "higher = stronger binding", "library": "7-deaza-guanosine replaces G", "all sequences stand within": "GGGAGUUCUACAGUCCGACGAUC … UGGAAUUCUCGGGUGUCAAGG"}
{"Oligonucleotide": "CACAGACAACACGCACCCACACAGACACAGAGGGAAGGGGUUGGGAUGGGGACAGGGUGCACAUCAGGGCGGGGUAGGACCCCAGCCCCU", "log2 enrichment": 0.222}
{"Oligonucleotide": "UCCUGUGCUACACAUCGUAUGUACCGAAUCAAAUUUUUUUAAACCCAAAUUUUUUUAAAAAAGUAUUAUGUUACGCCGUUCGGAUCUGCA", "log2 enrichment": -2.14}
{"Oligonucleotide": "ACCAUGCAGGUGGGCAUCUUUGGGAAGUGGGGCAAGGGGGGGAUAGGGAGGGGGGUAACACUUUGGGAACAUGUGGUCCCAGGUCGUUUC", "log2 enrichment": 1.38}
{"Oligonucleotide": "CACAGACAACACGCACCCACACAGACACAGAGGGAAGGGGUUGGGAUGGGGACAGGGUGCUCAGCAGGGCGGGGUAGGACCCCAGCCCCU", "log2 enrichment": -0.0568}
{"Oligonucleotide": "UGGCCCUGGUGGCAUGCGGGGAGGAAGAGGUGGCCUCAUGGAUCGUGGUAGUCCCGGUGGAAUGUUCAGAGGUGGCCGUGGUGGAGACAG", "log2 enrichment": 0.789}
{"Oligonucleotide": "CCUGUGCUACACAUCGUAUGUACCGAAUCAAACCCCCCCAAAUUUUUAAAUUUUUUUAAAAAAGUAUUAUGUUACGCCGUUCGGAUCUGC", "log2 enrichment": 1.73}
{"Oligonucleotide": "CUGUGCUACACAUCGUAUGUACCGAAUCGGGAAAAAAAGGGAAAAAAAGGAAAAAAAGGGGAAAGUAUUAUGUUACGCCGUUCGGAUCUG", "log2 enrichment": 0.0355}
{"Oligonucleotide": "UAACUUUAGAGGAGGAUCUGAUGGAUAUGGCAGUGGACGUGGAUUUGAGGAUGGCUAUAAUGGGUAUGGAGGAGGACCUGGAGGUGGCAA", "log2 enrichment": 0.294}
{"data": "Further values, each from its own experiment"}
{"Compound": "CCCOc1ccc([C@H]2[C@H](C(=O)O)[C@@H](c3ccc4c(c3)OCO4)CN2CC(=O)Nc2c(CC)cccc2CC)cc1", "tested on": "normal organoid sample H", "assay": "CellTiter-Glo", "system": "human, normal-adjacent epithelium", "conditions": "0.1 µM", "how to read": "reference: DMSO", "endpoint": "viability", "result": "129% and 128%"}
{"Compound": "CC[n+]1c(/C=C/N(C)c2ccccc2)n(-c2ccccc2)c2ccc(-c3nc4ccccc4s3)cc21", "tested on": "Ephrin type-A receptor 2 (EPHA2, Homo sapiens, UniProt P29317)", "assay": "enzyme activity, inhibitor", "conditions": "0.5 µM", "how to read": "reference: control", "endpoint": "remaining activity", "result": "100%"}
